Experimental data pooled from the literature.
Every numbered part comes from another study and shows a few of its results, in no order.
UniProt Q05655, sequence (whole entry, looked up): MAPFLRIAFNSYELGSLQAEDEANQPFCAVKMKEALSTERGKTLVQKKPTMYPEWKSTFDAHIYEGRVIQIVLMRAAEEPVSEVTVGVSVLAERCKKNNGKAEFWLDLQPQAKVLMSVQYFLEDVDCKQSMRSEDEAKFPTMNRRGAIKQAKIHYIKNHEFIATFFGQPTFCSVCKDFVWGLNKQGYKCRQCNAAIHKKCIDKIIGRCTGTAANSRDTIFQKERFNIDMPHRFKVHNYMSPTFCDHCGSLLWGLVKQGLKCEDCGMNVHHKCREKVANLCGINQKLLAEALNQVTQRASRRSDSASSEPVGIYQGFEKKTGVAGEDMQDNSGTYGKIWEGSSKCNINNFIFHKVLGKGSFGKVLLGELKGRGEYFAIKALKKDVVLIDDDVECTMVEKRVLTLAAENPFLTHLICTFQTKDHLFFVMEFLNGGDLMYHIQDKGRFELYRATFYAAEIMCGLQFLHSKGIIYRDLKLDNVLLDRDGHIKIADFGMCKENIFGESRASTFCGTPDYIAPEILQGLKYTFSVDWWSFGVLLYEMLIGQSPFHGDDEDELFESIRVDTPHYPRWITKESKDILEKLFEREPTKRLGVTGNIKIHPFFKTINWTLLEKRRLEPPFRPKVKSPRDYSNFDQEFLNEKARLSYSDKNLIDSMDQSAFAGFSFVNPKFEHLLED
UniProt Q9UKE5, sequence (whole entry, looked up): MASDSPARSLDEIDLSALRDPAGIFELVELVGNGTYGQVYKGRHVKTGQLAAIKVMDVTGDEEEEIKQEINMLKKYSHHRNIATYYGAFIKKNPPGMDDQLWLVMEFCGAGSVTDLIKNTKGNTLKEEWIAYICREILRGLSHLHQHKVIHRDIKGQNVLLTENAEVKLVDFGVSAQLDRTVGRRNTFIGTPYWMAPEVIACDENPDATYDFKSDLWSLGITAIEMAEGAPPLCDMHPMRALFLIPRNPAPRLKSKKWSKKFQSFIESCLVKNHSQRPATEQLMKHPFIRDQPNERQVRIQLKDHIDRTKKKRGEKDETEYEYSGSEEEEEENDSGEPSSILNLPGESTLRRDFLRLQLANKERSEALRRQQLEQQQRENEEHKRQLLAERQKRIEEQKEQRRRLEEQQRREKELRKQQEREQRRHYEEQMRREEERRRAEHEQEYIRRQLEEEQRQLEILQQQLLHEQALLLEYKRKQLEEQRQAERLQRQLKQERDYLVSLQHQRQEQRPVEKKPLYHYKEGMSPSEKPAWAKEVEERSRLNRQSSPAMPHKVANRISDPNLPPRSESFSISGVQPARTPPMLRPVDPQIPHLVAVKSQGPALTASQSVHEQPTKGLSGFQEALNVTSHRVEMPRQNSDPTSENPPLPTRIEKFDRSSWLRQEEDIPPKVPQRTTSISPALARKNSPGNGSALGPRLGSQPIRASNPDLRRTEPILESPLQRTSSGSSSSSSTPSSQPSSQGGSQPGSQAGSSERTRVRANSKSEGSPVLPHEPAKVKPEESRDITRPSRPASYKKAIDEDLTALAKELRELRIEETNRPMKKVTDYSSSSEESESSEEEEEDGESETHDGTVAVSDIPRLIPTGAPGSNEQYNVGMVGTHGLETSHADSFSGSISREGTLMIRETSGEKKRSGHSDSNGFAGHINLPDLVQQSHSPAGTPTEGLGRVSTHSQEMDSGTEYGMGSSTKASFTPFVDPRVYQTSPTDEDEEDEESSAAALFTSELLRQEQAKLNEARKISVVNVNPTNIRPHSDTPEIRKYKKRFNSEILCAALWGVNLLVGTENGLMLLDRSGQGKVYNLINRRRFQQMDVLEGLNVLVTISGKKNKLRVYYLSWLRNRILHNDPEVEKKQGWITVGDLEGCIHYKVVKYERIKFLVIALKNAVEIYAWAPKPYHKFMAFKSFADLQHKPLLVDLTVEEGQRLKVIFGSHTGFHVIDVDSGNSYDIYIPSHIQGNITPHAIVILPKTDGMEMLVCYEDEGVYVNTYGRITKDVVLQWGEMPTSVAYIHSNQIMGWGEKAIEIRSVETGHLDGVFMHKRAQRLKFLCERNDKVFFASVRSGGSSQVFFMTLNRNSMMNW
UniProt Q9UK32, sequence (whole entry, looked up): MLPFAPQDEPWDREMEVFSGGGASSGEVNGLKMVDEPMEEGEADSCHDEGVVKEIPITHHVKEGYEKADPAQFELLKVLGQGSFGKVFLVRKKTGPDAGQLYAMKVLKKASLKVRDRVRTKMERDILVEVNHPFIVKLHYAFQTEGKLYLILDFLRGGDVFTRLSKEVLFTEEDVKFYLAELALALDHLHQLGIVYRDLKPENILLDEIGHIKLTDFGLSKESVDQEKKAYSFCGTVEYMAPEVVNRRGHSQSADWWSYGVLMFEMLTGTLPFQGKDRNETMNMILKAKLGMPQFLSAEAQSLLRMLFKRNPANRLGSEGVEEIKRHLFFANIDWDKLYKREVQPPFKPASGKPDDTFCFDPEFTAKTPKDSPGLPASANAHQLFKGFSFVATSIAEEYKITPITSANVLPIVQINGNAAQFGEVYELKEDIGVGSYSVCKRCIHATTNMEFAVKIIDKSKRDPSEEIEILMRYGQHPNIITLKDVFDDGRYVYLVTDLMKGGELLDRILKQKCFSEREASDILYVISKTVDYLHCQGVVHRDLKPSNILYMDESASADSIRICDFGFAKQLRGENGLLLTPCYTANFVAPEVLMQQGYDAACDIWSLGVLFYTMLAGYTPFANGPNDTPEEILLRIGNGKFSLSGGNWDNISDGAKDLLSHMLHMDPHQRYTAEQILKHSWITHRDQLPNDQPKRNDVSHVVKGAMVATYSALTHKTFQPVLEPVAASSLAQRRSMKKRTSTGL
UniProt P42679, sequence (whole entry, looked up): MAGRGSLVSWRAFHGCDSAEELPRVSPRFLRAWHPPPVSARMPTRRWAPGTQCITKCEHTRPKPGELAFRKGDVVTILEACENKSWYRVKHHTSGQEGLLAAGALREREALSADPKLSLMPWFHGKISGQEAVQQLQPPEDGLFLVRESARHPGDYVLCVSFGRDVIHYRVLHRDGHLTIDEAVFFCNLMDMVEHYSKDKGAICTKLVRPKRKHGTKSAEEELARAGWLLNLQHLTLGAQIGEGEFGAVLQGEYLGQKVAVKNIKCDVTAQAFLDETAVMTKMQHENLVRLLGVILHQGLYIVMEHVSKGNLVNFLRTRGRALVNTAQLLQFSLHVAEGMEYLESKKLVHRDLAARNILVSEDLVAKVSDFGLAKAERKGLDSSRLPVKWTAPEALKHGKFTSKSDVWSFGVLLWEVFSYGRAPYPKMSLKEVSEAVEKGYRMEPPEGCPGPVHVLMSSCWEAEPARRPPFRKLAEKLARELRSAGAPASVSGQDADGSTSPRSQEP
UniProt Q13131, sequence (whole entry, looked up): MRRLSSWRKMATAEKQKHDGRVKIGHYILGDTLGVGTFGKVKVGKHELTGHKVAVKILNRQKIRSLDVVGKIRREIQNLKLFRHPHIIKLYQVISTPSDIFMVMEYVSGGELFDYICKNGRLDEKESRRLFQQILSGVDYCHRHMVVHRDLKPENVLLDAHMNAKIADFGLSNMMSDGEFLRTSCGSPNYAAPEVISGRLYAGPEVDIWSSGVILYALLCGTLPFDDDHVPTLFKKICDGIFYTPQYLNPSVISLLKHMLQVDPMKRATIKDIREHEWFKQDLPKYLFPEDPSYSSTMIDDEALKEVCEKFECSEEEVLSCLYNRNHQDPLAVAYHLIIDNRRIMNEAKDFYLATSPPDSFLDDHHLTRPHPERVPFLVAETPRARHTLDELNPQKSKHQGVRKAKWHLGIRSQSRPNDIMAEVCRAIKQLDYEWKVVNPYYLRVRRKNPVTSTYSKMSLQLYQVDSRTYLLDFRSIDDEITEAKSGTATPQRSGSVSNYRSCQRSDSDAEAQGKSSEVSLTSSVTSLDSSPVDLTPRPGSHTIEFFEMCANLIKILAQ
UniProt Q07912, sequence (whole entry, looked up): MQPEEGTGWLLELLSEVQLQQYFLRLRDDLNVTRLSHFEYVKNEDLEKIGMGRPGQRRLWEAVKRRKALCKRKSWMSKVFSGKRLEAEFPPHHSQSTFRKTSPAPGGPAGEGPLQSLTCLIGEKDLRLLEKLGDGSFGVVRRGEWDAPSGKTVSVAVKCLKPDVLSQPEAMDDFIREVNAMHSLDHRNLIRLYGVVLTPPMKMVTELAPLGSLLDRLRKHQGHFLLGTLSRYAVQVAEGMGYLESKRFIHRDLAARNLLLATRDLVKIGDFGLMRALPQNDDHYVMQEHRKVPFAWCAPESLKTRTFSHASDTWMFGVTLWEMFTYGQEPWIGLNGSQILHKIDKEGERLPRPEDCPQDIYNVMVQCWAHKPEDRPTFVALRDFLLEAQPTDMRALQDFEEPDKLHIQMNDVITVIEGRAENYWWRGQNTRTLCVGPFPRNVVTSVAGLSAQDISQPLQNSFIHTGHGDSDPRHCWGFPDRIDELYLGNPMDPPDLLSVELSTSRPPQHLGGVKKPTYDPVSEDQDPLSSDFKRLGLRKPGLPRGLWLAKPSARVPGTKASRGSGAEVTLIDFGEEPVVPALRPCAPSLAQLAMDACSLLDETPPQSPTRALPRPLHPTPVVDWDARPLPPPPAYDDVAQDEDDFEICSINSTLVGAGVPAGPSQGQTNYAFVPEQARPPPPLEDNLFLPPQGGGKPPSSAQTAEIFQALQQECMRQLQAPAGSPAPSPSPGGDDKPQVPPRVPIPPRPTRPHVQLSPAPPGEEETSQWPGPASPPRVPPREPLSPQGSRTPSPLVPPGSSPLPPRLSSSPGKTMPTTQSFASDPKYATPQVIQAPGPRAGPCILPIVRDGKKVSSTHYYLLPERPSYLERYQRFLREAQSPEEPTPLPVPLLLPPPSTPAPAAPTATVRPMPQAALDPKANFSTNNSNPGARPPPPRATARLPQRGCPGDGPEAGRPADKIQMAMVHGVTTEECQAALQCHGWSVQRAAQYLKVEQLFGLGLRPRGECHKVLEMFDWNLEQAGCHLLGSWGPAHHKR

Set 1 — effect on: binding; tested at: 1 µM
Compound: Cc1ccc(NC(=O)c2ccnc(C(F)(F)F)c2)cc1-c1cc(OCCO)nc(N2CCOCC2)c1
target | method | remaining binding [%]
TNIK (Homo sapiens, UniProt Q9UKE5) | competition with immobilised ligand | 100
Ribosomal protein S6 kinase alpha-6, N-terminal kinase domain (RPS6KA6, Homo sapiens, UniProt Q9UK32) | competition with immobilised ligand | 81
MATK (Homo sapiens, UniProt P42679) |  | 90
PRKAA1 (Homo sapiens, UniProt Q13131) | competition with immobilised ligand | 85
TNK2 (Homo sapiens, UniProt Q07912) | competition with immobilised ligand | 86
PRKCD (Homo sapiens, UniProt Q05655) |  | 100

Set 2 — cell line: HaCaT; tested at: 100 µM; time: 60 h
Compound | viability [%]
c1cc(CN2CCCNCCNCCCNCC2)ccc1CN1CCCNCCNCCCNCC1 | 161
C[N+]1(C)CCC(=C(c2ccccc2)c2ccccc2)CC1 | 163
CC1CCc2cc(F)cc3c(=O)c(C(=O)O)cn1c23 (stereo not shown) | 124
CC(C)(C)C(=O)C(Oc1ccc(Cl)cc1)n1ccnc1 (stereo not shown) | 127
O=C(O)c1ccc[n+]([O-])c1 | 143

Set 3 — effect on: enzyme activity; action: inhibitor; tested at: 0.5 µM; relative to: control
Target: Serine/threonine-protein kinase Chk1 (CHEK1, Homo sapiens, UniProt O14757)
Target sequence (O14757 1-476): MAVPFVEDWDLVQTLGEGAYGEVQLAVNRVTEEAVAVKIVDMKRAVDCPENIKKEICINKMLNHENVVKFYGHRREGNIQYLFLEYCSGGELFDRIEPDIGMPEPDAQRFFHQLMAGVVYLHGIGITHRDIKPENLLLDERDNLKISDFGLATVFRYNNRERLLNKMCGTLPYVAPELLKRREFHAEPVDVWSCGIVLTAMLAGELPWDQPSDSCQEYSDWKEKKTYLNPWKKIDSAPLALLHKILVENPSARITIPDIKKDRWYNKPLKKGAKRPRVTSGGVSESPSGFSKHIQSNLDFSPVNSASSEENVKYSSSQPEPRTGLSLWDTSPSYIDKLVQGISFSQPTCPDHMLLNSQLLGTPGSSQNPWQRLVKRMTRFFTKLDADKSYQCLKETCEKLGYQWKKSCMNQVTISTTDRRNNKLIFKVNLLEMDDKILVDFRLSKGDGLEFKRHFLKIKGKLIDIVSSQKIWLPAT
SMILES | remaining activity
CNC(=O)c1cc(Oc2ccc(NC(=O)Nc3ccc(Cl)c(C(F)(F)F)c3)cc2)ccn1 | 173%
O=C1NC(=O)C(c2cn(CCCO)c3ncccc23)=C1c1cnccn1 | 141%
Cn1sc(=O)n(Cc2ccccc2)c1=O | 103%
CN(C)c1ccc(C=C2C(=O)Nc3ccccc32)cc1 | 98.2%
N#CC(C#N)=C(N)/C(C#N)=C/c1ccc(O)cc1 | 98.3%
O=C(CCCc1ccc(-c2ccccc2F)cc1)Nc1ccc(O)cc1 | 98.8%
COc1ccc(OC)c2c(=S)c3ccccc3[nH]c12 | 92.7%
Cn1c2ccccc2c2c3c(c4c5ccccc5n(CCC#N)c4c21)CNC3=O | 7.95%
O=C(Nc1cccc(Nc2cc(Nc3cccc(C(F)(F)F)c3)ncn2)c1)C1CC1 | 105%
Nc1ncnc2n[nH]c(Nc3ccc(F)cc3)c12 | 88%
Nc1ccc2ncnc(NCCc3ccc(Oc4ccccc4)cc3)c2c1 | 101%
COc1ccc(C(=O)Nc2sc3c(c2C(N)=O)CCCC3)cc1OC | 112%
O=C(O)c1ccc2c3c1cccc3c(=O)n1c3ccccc3nc21 | 101%
CO[C@H]1C[C@@H]2CC[C@@H](C)[C@@](O)(O2)C(=O)C(=O)N2CCCC[C@H]2C(=O)O[C@H]([C@H](C)C[C@@H]2CC[C@@H](O)[C@H](OC)C2)CC(=O)[C@H](C)/C=C(\C)[C@@H](O)[C@@H](OC)C(=O)[C@H](C)C[C@H](C)/C=C/C=C/C=C/1C | 107%
CC(C)[C@H](CO)Nc1nc(Nc2cc(N)cc(Cl)c2)c2ncn(C(C)C)c2n1 | 96.2%

Set 4 — species: mouse; sample: microsomes or S9; tested at: 2 µM; time: 0.5 h
SMILES | remaining compound [%]
CC(C)c1ccc(NC(=O)CCNS(=O)(=O)c2cc(Br)cnc2N)cc1 | 1.21
CCCC1(C)NC(=O)N(CC(=O)N(CC(C)C)CC(C)C)C1=O (stereo not shown) | 8.22
Brc1cccc(Nc2ncnc3cc4c(cc23)OC(COCc2ccccc2)CO4)c1 (stereo not shown) | 28.3
Cn1nc(C2CC2)c2c(C(=O)Nc3ccc(Cn4cc(Cl)cn4)cc3)cc(C3CC3)nc21 | 86.3
COc1cccc(N(Cc2n[nH]c(=O)[nH]2)C(=O)CCC2CCCC2)c1 | 23.9
Cc1ccc(Cl)cc1NC(=O)Cn1ncc2ccccc2c1=O | 2.02
CCc1ccc2ncc3c(-c4ccc(F)cc4)n[nH]c3c2c1 | 28.7
CCC1CN(C(=O)c2cc(S(=O)(=O)N3CCOCC3)cn2C)c2cc(Cl)ccc2O1 (stereo not shown) | 2.67
CC(C)CCNC(=O)N1Cc2c(sc3c2CCCC3)-n2cccc2C1c1ccccc1 (stereo not shown) | < 1
O=C(OCC(=O)c1c(-c2ccccc2)[nH]c2ccccc12)c1ccccc1NCCO | 37.3
CCN(CC)C(=O)CN(C)Cc1nc(-c2nc[nH]n2)no1 | > 100

Some of these lines once more (set 1):
target | method | remaining binding [%]
PRKAA1 (Homo sapiens, UniProt Q13131) | competition with immobilised ligand | 85
TNIK (Homo sapiens, UniProt Q9UKE5) | competition with immobilised ligand | 100
TNK2 (Homo sapiens, UniProt Q07912) | competition with immobilised ligand | 86
